Results from different studies.
Each numbered part is a random draw from the data of one study; scales do not carry over between parts. Substitutions count along the parent as printed.

Set 1 — technique: protein binding microarray; form: double-stranded DNA, one strand shown; sample: in vitro; concentration: not given; baseline: not given; reading: higher = stronger binding; measurement: E-score
Target: Histone acetyltransferase KAT6A, winged helix 2, GST fusion (KAT6A, Homo sapiens, UniProt Q92794, residues 85-181)
Notes: 8-mer, flanks averaged, mean of 2 arrays, mostly near background
Residues (chain): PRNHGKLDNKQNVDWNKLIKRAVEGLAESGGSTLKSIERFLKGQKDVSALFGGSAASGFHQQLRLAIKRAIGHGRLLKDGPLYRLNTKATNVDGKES
CGATTGTC: 0.115
AACAGCAT: -0.0245
CGGTGGCA: -0.0226
CTCACGGA: 0.0129
GACCGCGC: 0.118
AGACTGTG: -0.287
CATTTACC: -0.0261
CAAATCCC: -0.0313
ATGGTCAC: 0.123
TAACCTGA: -0.126
CTATAGTA: -0.0263
GATTCCAC: -0.0483
CAATTGAG: -0.00722
ACACCATC: -0.0599
CTCAAAAC: 0.0159
GCGAGCGA: 0.227
CGCCTATA: -0.0359
CAGTGTTC: -0.116
ACTGTTAT: -0.165
GCCCCTGA: 0.118

Set 2 — technique: RNA Bind-n-Seq; form: RNA; sample: in vitro; concentration: not given; baseline: input RNA pool; reading: higher = stronger binding; measurement: bound/input enrichment
Target: RING finger protein unkempt homolog, zinc fingers 1-6, GST-SBP tag (UNK, Homo sapiens, UniProt Q9C0B0, residues 30-357)
Notes: RNA with constant flanks, human-mouse chimeric sites, ends assumed
Shared flanks, not repeated: GGGAGUUCUACAGUCCGACGAUC … CAACAGAGGAUUGAGCAUCA
Construct (chain): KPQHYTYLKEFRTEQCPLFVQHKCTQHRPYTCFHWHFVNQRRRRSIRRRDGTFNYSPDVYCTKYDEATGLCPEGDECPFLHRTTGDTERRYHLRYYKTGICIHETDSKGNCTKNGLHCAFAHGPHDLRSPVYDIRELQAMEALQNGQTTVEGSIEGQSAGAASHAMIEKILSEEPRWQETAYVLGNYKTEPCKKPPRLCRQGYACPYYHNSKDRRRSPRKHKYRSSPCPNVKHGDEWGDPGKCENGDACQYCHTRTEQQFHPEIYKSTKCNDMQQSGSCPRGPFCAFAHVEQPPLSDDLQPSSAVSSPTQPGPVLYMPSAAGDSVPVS
UCUUAACUUAUUCAUUUAACUUAUUUUUAUAGCUAGAUAAAUAUUGUUAGUCUUAGACAAUAGCUCACAUUUUUUGAAAAGCAUGCUCUCCCUGUCCAUUGGGCCCAUAACAUGACCCAG: 90.5 ratio
AGUGUGCAGGAAUUCAUGACCUUUACAAGUCAACUGAUUGUGGAACGCUCGGGGAAAGGCAGCAGAGCUUCUGUCAAAGAACAAGACUAUCUGUGCCAUGUCUACGUCCGGAGCGACAGU: 0.147 ratio
GACUUUGGAACUGGUCCUCGCAACGCAGCCUUCUAUAGCCCUCAUGGACAUAUAUUAGUGCUGGCUGGAUUUGGAAAUCUUCGAGGACAAAUGGAAGUAUGGGAUGUUAAAAACUACAAG: 0.439 ratio
CAGGGCAUCAUCUCUCGUGCUGUUAGACACCUUUUUAAGAGUAUUGAUGAGAAAAAGACCUCAGCGAUUAAAAAUGGGCUGCCCCCUCCUGAAUUCAAAGUGAAUGCCCAGUUCCUAGAG: 0.354 ratio
CACAGAGGAGAUCUGCUGUUCCUCACGAAUUUCCGGGAGGACCCCAUCAGAGCUGGUGAAAUAGUUGUUUUUAAGGUUGAAGGACGAGACAUUCCGAUAGUUCACAGAGUAAUCAAGGUU: 3.51 ratio
GAGUCGAUUAUGGAAACAACUACAGAAUAUCUUGCAGCCUCAGUGUUCACUUGCUUGGCGAUAGCAUUGGGGUUUUAUAGGUUCUGGAAGGAGAACUGACGAUGAUGCUGCCGCUGCUGC: 0.179 ratio
UUACCCGAAAAUGAAGAUGAGCUGGAGAGCACCAACAGGCGCUACACCAAGAGAGACUGCAGCACUUUCCUCAGAACUAGUGAGACGGGCAUCGUGGACCAGGUCAUGGUCACUCUCAAC: 0.26 ratio
UCGGAUGCUGUGCUGGGUCACUUUUCAUAUCCAGAUCCUUCACAGUGGACAGAUGAAGAACUGGGAAUCCCUCCUGAUGAUGAAGACUGACACUGUAAACUCUCUGGACGAGUAGGAGCA: 0.435 ratio
UUUCUACUGCAGCAAACGAUGCUAAGAAUUAAGGAUCCUAAGAAGUCCCUGGAUUUUUAUACGAGGGUUCUUGGAAUGACCCUCCUGCAAAAAUGUGACUUCCCUGCUAUGAAGUUCUCG: 0.0714 ratio
UAUUUUUGACAGCCACAAAUUCUUGGCAUGUAUUAAGGAAAAAAAAAAUCCCUGUUGAAGUAGUUUUUCCACCUAUCAGCACUGAGUAAAUGCCAUAACUCCGCGGAAAUGGUCUAAAUA: 0.243 ratio
UUAUCCAAGACUCAACGAAAGACUCCAACGGUUAUUCAUAAACAUUAUCAAAUUCAUCGGAUUCGACAUUUUUACAUGAGAAAAGUCAAAUUUACUCAACAGAAUUACCAUGACAGACUG: 0.148 ratio

Set 3 — target: BATF3, bZIP domain (human); technique: DHFR protein complementation; sample: yeast; baseline: wild-type JUN-FOS pair; reading: higher = stronger binding; measurement: binding fitness
Notes: single substitutions, most at no-binding floor
Starting sequence: JUN, bZIP domain (human); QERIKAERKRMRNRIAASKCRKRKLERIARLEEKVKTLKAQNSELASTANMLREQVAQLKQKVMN; partner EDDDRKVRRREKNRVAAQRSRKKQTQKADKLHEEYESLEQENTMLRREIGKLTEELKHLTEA
V35Y: 0.0485 natural log
A57G: 0.254 natural log
T37W: 0.188 natural log
V35Q: -0.228 natural log
L38A: 0.288 natural log
A57P: -0.829 natural log
L45G: -0.797 natural log
S47R: 0.21 natural log
A29Q: 0.147 natural log
E32T: 0.122 natural log
K36A: 0.267 natural log
L38K: 0.0756 natural log
R30V: 0.342 natural log
T37D: 0.194 natural log
Q41K: 0.201 natural log
Q41N: 0.107 natural log

Set 4 — technique: RNA Bind-n-Seq; form: RNA; sample: in vitro; concentration: 365 nM; baseline: no-protein control; reading: higher = stronger binding; measurement: RBNS enrichment (R)
Target: RNA binding protein fox-1 homolog 2, RRM domain, GST-SBP tag (RBFOX2, Homo sapiens, UniProt O43251-10, residues 100-194)
Notes: natural RNA segment, single round, ends assumed
Shared flanks, not repeated: GGGAGUUCUACAGUCCGACGAUC … UGGAAUUCUCGGGUGCCAA
ACACCUGGAGCCAAAGCAGGAGUUGGAGGGACAAUGCCACUAUGAAUCUAAUGUUUAAAAGGUUAGGGAACAUGGAUAUUCGUACUCACAUCUGCGCCCCUCCCCCUUGC: 0.772
CUUGUGUUUUUCAGUGUGUGCCUCCCCGAGCCUCAGCCCCAAGCUGAUUUCUUAUCUGGAAAUGGUACACUGAAUUCUCUGGGUGGCUUUCUUGUGGCCCCAUGGGAUGC: 0.4
CCCAGCUCAGAACCUAGGAAUCCCACAGCCCUAACCCCAGCCUUCAUACAGACUUUUAAUCCUCUACCACAUGCGAAUGCUGAACCCUCAGGAAGACCCACCUCUAUACC: 0.748
AAAUAUUUCAGUAAUUUUGGAGUGGAAGUUGGGUUGCUAACAUCAGAGCUCAUGUUCAUGUUUUAGAAGCCCUUUCUUUCUAGGUGUCUCUCAAAAGACUGGCUUAAUUG: 0.377
UUGGGUCUCCUGGGAUUCUAGGAGUGACAGACCAGGCUGUGGCCUCUGCACCCCACCCCUCACCCUUGUGCAGGGACAACUCCUUGCCCUGUGUUUCUUGGCCUCUAGAC: 0.371
AUUCUAGUUUGGGCUCAAUGAAGGAAGCAGGAAGGGGCAGCAACUGAAUGUCACUCUCCACUGCUGCAGCAGUAAAUCUCUCAGUAAAAGAAGACCCUCUCCCUCAGGGG: 0.465
UUUCUUUUUUAAAAGAAAAAACUUGAAAGAACACUUCUAAGCCUAAGUGUGUGAUACAGUUUGUUACUUUUAAGUACAUUUUAAUAAUUUCAGACAUCUGCAUUUUUAUU: 1.09
CACAGUGUCAGAGACGCGUCCUCUUUCUUGGGGAAGUUGAGGAGUGCCCUUCAGAGCCAGUAGCAGGCAGGGGUGGGUAGGCACCCUCCUUCCUGUUUUUAUCUAAUAAA: 0.577
GGCUGUGCUGCCCUAGACCCGCCACACCAAGCCAUCCGCCCCUCACAGACCCUACAAGACGAUGUUAGGAAACACAUGCUUGCUGGCCUUGAAGGACACAGAGAGAAGUA: 0.779
AGGGCAGCACUGGGAAGCUGGAGUGCUGCUUGUGCCUCCCUUCCCAGUGGGCUGUGUUGACUGCUGCUCCCCACCCCUACCGAUGGUCCCAGGAAGCAGGGAGAGUUGGG: 0.903
GUGUGUGUUAGAAGCCCAUUCAUUAGAAGUGUGGUGGUUAUUUGGUAUUAAACUCCAAAUGAGCCAUAGGAAGGCACUACAUGAAAUAAUGCACUGAGUAUGCAAUGCUA: 1.8
GGGGGAGCCGGGGCUCAGGGCCCCUGACUGCAUGGUGCAUGAGUGAUCUCAGCCUAGCGAUGCCGCUGGCCAGACCGUGACCAUGCUGCCAGUGUGCUCGCCAUGAGCUG: 2.62

Set 5 — target: CCND1, cyclin fold, Cln2 fusion (human); technique: yeast growth competition, sequencing; sample: yeast; notes: strong parent motif; baseline: not given; reading: higher = stronger binding; measurement: normalised enrichment score
Starting sequence: CCP110 docking peptide (human); EKVKRRLDLDIDG; partner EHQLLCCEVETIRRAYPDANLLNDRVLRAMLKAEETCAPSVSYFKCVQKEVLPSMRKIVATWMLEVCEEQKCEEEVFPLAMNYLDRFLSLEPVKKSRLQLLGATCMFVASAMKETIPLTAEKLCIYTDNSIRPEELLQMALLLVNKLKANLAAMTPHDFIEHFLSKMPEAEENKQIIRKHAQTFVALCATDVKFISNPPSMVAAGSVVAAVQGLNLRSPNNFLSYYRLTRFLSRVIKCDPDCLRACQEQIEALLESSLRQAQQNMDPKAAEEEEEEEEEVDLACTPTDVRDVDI
R5A L7A: 0.0766
L9F: 2.55
D8A: -0.17
D10A: 0.68
R5K L9F: 0.704
G13A: 1.23
V3A: 0.749
L7A: -0.218
I11A: 0.219
K2A: 0.432

Set 6 — technique: DHFR PCA, deep sequencing; sample: yeast; added: (+)-ABA 0.11 µM; baseline: wild-type fitted maximum; reading: higher = stronger binding; measurement: relative binding score
Target: ABI1, truncated, D143A, DHFR fusion (Arabidopsis thaliana)
Notes: methotrexate growth selection, single substitutions
Starting sequence: PYL1, truncated, DHFR fusion (Arabidopsis thaliana); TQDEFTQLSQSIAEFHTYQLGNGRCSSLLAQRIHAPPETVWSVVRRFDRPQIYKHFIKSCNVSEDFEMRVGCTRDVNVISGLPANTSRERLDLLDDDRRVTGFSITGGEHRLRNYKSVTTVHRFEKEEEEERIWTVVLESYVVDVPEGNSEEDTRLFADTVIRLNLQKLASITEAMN; partner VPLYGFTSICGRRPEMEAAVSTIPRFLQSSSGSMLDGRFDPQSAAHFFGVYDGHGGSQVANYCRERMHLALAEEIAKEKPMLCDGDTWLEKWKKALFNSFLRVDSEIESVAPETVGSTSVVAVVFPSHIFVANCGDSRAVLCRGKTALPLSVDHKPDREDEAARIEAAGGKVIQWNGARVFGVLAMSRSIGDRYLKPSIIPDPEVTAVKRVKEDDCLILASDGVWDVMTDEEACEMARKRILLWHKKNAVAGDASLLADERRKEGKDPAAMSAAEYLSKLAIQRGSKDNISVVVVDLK
T17A: 10.4%
V62R: 2.58%
L29T: -2.33%
E89T: 2.51%
V137K: -4.62%
M176H: 10.7%
G108C: 4.57%
I57V: 22.1%
F47D: -7.42%
N177K: 26.9%
S42I: -3.48%
E174M: 8.51%
A30E: 2.14%
L82M: 38.5%
E139Q: 27.3%

Mixed results
PhoQ, residues 284 288 289 292 302 303 ASTSDA — fold induction (PhoP, residues 12 14 15 18 19 NFCKL (Escherichia coli, UniProt P23836); Sort-seq, measured: YFP reporter; E. coli; PhoQ-PhoP variant library, added: 10 µM Mg2+; baseline: high Mg2+ state, higher = stronger signaling): 0.753
